Experimental data pooled from the literature.
Protocols differ between the studies behind these lines. Numbers after ± are the reported error.

| SMILES | cell line | assay | setting | IC50 [µM] |
| --- | --- | --- | --- | --- |
| CC[C@@]12CCc3[nH]c4ccccc4c3CCN(C[C@H]3O[C@H]31)C2 | BV-2 | cell growth or viability, MTT | – | 56.7 |
| CC(=O)N[C@H](CCCNC(=N)N)C(=O)N[C@@H](CC(=O)N[C@H](Cc1ccccc1)C(N)=O)c1ccc2ccccc2c1 | BT-474 | cell growth or viability, ATP luminescence | 72 h | 3.65 |
| CN1CCCNC(=O)c2cccc(c2)C(=O)NCCCN(C)CCCNc2cccc3c2C(=O)c2cccc(c2C3=O)NCCC1 | mouse bone marrow cells | cell proliferation, CCK-8 | 48 h | 6.3 |
| COc1ccc2cc3[n+](cc2c1OCc1cn(Cc2ccc(C(C)(C)C)cc2)nn1)CCc1cc2c(cc1-3)OCO2 | SMMC-7721 | cell growth or viability, MTT | – | 11.9 |
| COc1cccc2c1C(=O)c1c(O)c3c(c(O)c1C2=O)C[C@@](O)(C(=O)CO)C[C@@H]3O[C@H]1C[C@H](N)[C@H](O)[C@H](C)O1 | human dermal fibroblasts | cytotoxicity, MTT | 72 h | ~0.1 |
| CN1CCN(c2ccc(-c3ccc4[nH]c5ncc(/C=C/c6ccccc6)cc5c4c3)cc2)CC1 | Ba/F3 NPM-ALK | cell proliferation, [3H]-thymidine incorporation | – | 1.1 |
| Cc1ncsc1-c1ccc(C(CO)NC(=O)C2CC(O)CN2C(=O)C(C(C)C)n2cc(-c3ccc(COc4c(-c5c(C)c(F)cc6[nH]ncc56)c(C5CC5)cc5c(N6CC7CC6CN7)nc(OC6CCOCC6)nc45)cc3)nn2)cc1 (centres unmarked) | A-375 (KRAS wild type) | cell growth, CellTiter-Glo | 144 h, 3D culture | > 10 |
| COc1ccc2cc3[n+](cc2c1OCc1cn(Cc2ccc(F)cc2Br)nn1)CCc1cc2c(cc1-3)OCO2 | SMMC-7721 | cell growth or viability, MTT | – | 18.9 |
| CCCCc1ccc(C(=O)O[C@@H]2CC(=O)O[C@H](C)C/C=C/C=C/[C@H](O[C@H]3CC[C@H](N(C)C)[C@@H](C)O3)[C@H](C)C[C@H](CC=O)[C@H](O[C@@H]3O[C@H](C)[C@@H](O[C@H]4C[C@@](C)(O)[C@@H](O)[C@H](C)O4)[C@H](N(C)C)[C@H]3O)[C@H]2OC)cc1 | GES1 | cell growth or viability, CCK-8 | 72 h | 4.68 |
| CC(C)c1cccc(C(C)C)c1[N+]#[C][Pd-]([Cl])([Cl])=[C](Nc1ccc(CN[C](NC(C)(C)C)=[Au][Cl])cc1)Nc1c(C(C)C)cccc1C(C)C | MRC5 | cell growth or viability | – | > 100 |
| CCCCCCCCCCCCn1c(-c2cccnc2)nc(-c2ccc(C)cc2)c1-c1ccc(C)cc1 | BT-474 | cell growth or viability, SRB | 48 h | > 100 |
| Cc1ccc(NC(=O)c2c(C)oc3ccc(O)c(CN4CCCCCC4)c23)cc1 | MOLP-8 | cell growth or viability, MTS | 72 h | 8.3 |
| CO[C@@H]1[C@@H](O[C@@H]2O[C@H](C)[C@@H](O[C@H]3C[C@@](C)(O)[C@@H](OC(=O)c4ccc(C(C)(C)C)cc4)[C@H](C)O3)[C@H](N(C)C)[C@H]2O)[C@@H](CC=O)C[C@@H](C)[C@@H](O[C@H]2CC[C@H](N(C)C)[C@@H](C)O2)/C=C/C=C/C[C@@H](C)OC(=O)C[C@H]1O | GES1 | cell growth or viability, CCK-8 | 72 h | 3.34 |
| OC[C@H]1[C@@H](O)[C@@H](O)CN1Cc1ccc(Br)cc1 | CEM-DNR daunorubicin resistant | MTS | 72 h | 122 ± 22 |
| CC1=C2[O][Ru-]([Cl])[O+]=C2C=CN1CCCCCCN1C=CC2=[O+][Ru-]([Cl])[O]C2=C1C.Cc1ccc(C(C)C)cc1.Cc1ccc(C(C)C)cc1 | KYSE-70 | cell growth or viability, crystal violet | 96 h | > 20 |
| O=C1NCCN1C[C@H](O)Cn1c2ccc(F)cc2c2cc(F)ccc21 | U2OS Per2-dLuc | Per2 reporter gene, repressor | – | ≤ 1 |
| N#Cc1cccc(-c2ccc(=O)n(Cc3cccc(-c4ncc(OCC5CCN(CC(=O)NCCOCCOCCNc6ccc7c(c6)C(=O)N(C6CCC(=O)NC6=O)C7=O)CC5)cn4)c3)n2)c1 (centres unmarked) | EBC-1 | cell growth or viability, CCK-8 | 72 h | 0.00555 |
| COc1cc(O)c(-c2c(O)cc(OC)c3c2ccc2cc(O)ccc23)c2ccc3ccccc3c12 | BV-2 | NO release, inhibitor, Griess | LPS-stimulated | 8.42 |
| COC1CCC(Nc2nc(-c3nccn3C)nc3sc(-c4ccn(C)n4)c(-c4ccccc4)c23)C1 (centres unmarked) | MIA PaCa-2 (KRAS G12C) | Western blot, measured: phospho-MEK and phospho-ERK1/2 | 6 h, together with: EGF 15 min | ~1 |
| N#Cc1cccc(-c2ccc(=O)n(Cc3cccc(-c4ncc(OCC5CCN(CC(=O)NCCOCCNc6ccc7c(c6)C(=O)N(C6CCC(=O)NC6=O)C7=O)CC5)cn4)c3)n2)c1 (centres unmarked) | EBC-1 | cell growth or viability, CCK-8 | 72 h | 0.00334 |
| NC1CCCCC1N.O=C(CCCc1ccccc1)[O][Pt]1([O]C(=O)CCCc2ccccc2)[O]C(=O)C(=O)[O]1 | BXPC-3 | cell growth or viability | – | 7.64 |
| COC(=O)[C@H]1CC[C@H](NC(=O)C[C@H]2Oc3ccccc3C(=O)[C@]2(C)[N+](=O)[O-])CC1 | human Fibroblast | cell growth or viability, SRB | 96 h | > 100 |
| COc1cccc(-c2ccc(Nc3ccc(CN(C)C)cc3)c(OC)c2F)c1 | NCI-H441 | cell growth or viability, ATP luminescence | 72 h | 11.1 |
| CC(C)C[C@H](NC(=O)[C@@H](Cc1c[nH]c2ccccc12)NC(=O)[C@H](Cc1ccc(O)cc1)NC(=O)[C@H](CO)NC(=O)[C@H](Cc1c[nH]c2ccccc12)NC(=O)[C@H](Cc1c[nH]cn1)NC(=O)[C@@H]1CCC(=O)N1)C(=O)N[C@@H](CCCNC(=N)N)C(=O)N1CCC[C@H]1C(=O)NCC(N)=O | WPE-1-NB26-3 | cell growth, inhibitor, sulforhodamine B staining | four days | 0.00017 ± 5e-05 |
| COc1ccc2nc(Cl)c(-c3nc4cc(Cl)c(Cl)cc4[nH]3)cc2c1 | BEL-7404 | cell growth or viability, MTT | 48 h | 21.1 |

| SMILES | cell line | assay | setting | IC50 [µM] |
| --- | --- | --- | --- | --- |
| CCCCCCCCn1c(-c2cccnc2)nc(-c2ccccc2)c1-c1ccccc1 | BT-474 | cell growth or viability, SRB | 24 h | 29.2 |
| C=C(F)C(=O)Nc1cnn2ccc(-c3ccc(C4CCCCC4)cc3)nc12 | NCI-H2052 (NF2 mutant) | cell growth, inhibitor | 120 h | 0.229 |
| COc1ccc2cc3[n+](cc2c1OCc1cn(Cc2ccc([N+](=O)[O-])cc2)nn1)CCc1cc2c(cc1-3)OCO2 | SMMC-7721 | cell growth or viability, MTT | – | 63.8 |
| CC(C)c1cccc(C(C)C)c1[N+]#[C][Pd-2]([Cl])([Cl])[C]#[N+]c1c(C(C)C)cccc1C(C)C | MRC5 | cell growth or viability | – | > 100 |
| COC(=O)[C@@H](Cc1cn(Cc2ccc(Cl)cc2)nn1)NC(=O)OCC1c2ccccc2-c2ccccc21 | BXPC-3 | cell growth or viability, MTS | 72 h | 1.35 |
| COc1ccc2nc(Cl)c(-c3nc4cc(Br)ccc4[nH]3)cc2c1 | L02 | cell growth or viability, MTT | 48 h | > 100 |
| CC(C)c1cccc(C(C)C)c1-n1c2c([n+](-c3c(C(C)C)cccc3C(C)C)[c]1[Au-][Cl])-c1cccc3cccc-2c13 | NTERA2 | cell growth or viability, MTT | 72 h | 40 |
| CN(C)CCO/N=C1/C=C2CCC3C(CC[C@]4(C)/C(=C/c5ccccn5)CCC34)[C@@]2(C)CC1 (some centres unmarked) | human Fibroblast | cell growth or viability, resazurin | 72 h | 34.2 |
| C=CC(=O)Nc1ccc(F)c(-c2ncnc3[nH]cc(C(=O)OCC)c23)c1 | mouse naive CD4 T cells | IL-2 production | together with: TCR stimulation | > 1.1 |
| CCc1ccc([C@H](C)CC(=O)N[C@@H]2O[C@H](CO)[C@@H](O)[C@H](O)[C@H]2O)cc1 | human T-lymphocyte | cell growth or viability | 72 h | > 250 |
| CCCCc1ccc(C(=O)O[C@H]2[C@H](C)O[C@@H](O[C@H]3[C@H](N(C)C)[C@@H](O)[C@H](O[C@H]4[C@@H](CC=O)C[C@@H](C)[C@@H](O[C@H]5CC[C@H](N(C)C)[C@@H](C)O5)/C=C/C=C/C[C@@H](C)OC(=O)C[C@@H](O)[C@@H]4OC)O[C@@H]3C)C[C@@]2(C)O)cc1 | GES1 | cell growth or viability, CCK-8 | 72 h | 2.75 |
| O=C1CCc2ccc(NS(=O)(=O)c3cccc(Oc4ccccc4)c3)cc2N1 | BV-2 | PGE2 release, inhibitor | LPS-stimulated | 0.0041 |
| CCCCCCCCn1c(-c2cccnc2)nc(-c2ccc(C)cc2)c1-c1ccc(C)cc1 | BT-474 | cell growth or viability, SRB | 48 h | 39.9 |
| Cc1cc(C)c(N[C](NCc2cccc(N[C](Nc3c(C(C)C)cccc3C(C)C)=[Pd-]([Cl])([Cl])[C]#[N+]c3c(C(C)C)cccc3C(C)C)c2)=[Au][Cl])c(C)c1 | MRC5 | cell growth or viability | – | > 100 |
| CC(=O)OC[C@H]1O[C@@H](NC(=O)[C@@H](C)Cc2ccc(C(C)C)cc2)[C@H](OC(C)=O)[C@@H](OC(C)=O)[C@@H]1OC(C)=O | human T-lymphocyte | cell growth or viability | 72 h | 110 |
| Clc1ccc2[nH]c(-c3cc4ccccc4nc3Cl)nc2c1 | BEL-7404 | cell growth or viability, MTT | 48 h | 22.2 |
| CC(=O)N[C@H](Cc1ccccc1)C(=O)N[C@@H](CC(=O)N[C@H](CCCNC(=N)N)C(N)=O)c1ccc2ccccc2c1 | BT-474 | cell growth or viability, ATP luminescence | 72 h | 0.595 |
| C1=[N+]2CCCC[N+]3=Cc4ccc5[n]4[Au-]23[n]2c1ccc2-c1nc2ccccc2nc1-5.F[P-](F)(F)(F)(F)F | melanoma cancer cell lines | – | NCI60 panel mean | 27 |
| Cc1cc2nc(-c3cc4ccccc4nc3Cl)[nH]c2cc1C | L02 | cell growth or viability, MTT | 48 h | > 100 |
| COc1ccc(/N=N/C(=S)N2CCOCC2)cc1 | human Fibroblast | cell growth or viability, resazurin | 48 h | > 50 |
| COc1ccc(-c2cnc3[nH]c4ccc(/C=C/c5ccccc5)cc4c3c2)cc1 | Ba/F3 NPM-ALK | cell proliferation, [3H]-thymidine incorporation | – | 2 |
| COc1c(O)cc2oc3cc4c(c(O)c3c(=O)c2c1CCC(C)C)CC(O)O4 (centres unmarked) | SMMC-7721 | cell growth or viability | 48 h | 6.92 |
| Cc1ccc2nc(Cl)c(-c3nc4cc(C)c(C)cc4[nH]3)cc2c1 | L02 | cell growth or viability, MTT | 48 h | > 100 |
| COc1c(OC(C)=O)cc2oc3cc(OC(C)=O)c(CC=C(C)C)c(O)c3c(=O)c2c1CC=C(C)C | SMMC-7721 | cell growth or viability | 48 h | 13.6 |
| CC/C(=C(\c1ccc(O)cc1)c1ccc(OCCN(C)CCOCCOCCN(C)CCOc2ccc(/C(=C(/CC)c3ccccc3)c3ccc(O)cc3)cc2)cc1)c1ccccc1 | MCF7 (ER-positive) | cell growth | 96 h | 0.07 |
